Assay results pooled from the literature.
Each numbered part is a random draw from the data of one study; scales do not carry over between parts.
UniProt P29320, sequence (whole entry, looked up): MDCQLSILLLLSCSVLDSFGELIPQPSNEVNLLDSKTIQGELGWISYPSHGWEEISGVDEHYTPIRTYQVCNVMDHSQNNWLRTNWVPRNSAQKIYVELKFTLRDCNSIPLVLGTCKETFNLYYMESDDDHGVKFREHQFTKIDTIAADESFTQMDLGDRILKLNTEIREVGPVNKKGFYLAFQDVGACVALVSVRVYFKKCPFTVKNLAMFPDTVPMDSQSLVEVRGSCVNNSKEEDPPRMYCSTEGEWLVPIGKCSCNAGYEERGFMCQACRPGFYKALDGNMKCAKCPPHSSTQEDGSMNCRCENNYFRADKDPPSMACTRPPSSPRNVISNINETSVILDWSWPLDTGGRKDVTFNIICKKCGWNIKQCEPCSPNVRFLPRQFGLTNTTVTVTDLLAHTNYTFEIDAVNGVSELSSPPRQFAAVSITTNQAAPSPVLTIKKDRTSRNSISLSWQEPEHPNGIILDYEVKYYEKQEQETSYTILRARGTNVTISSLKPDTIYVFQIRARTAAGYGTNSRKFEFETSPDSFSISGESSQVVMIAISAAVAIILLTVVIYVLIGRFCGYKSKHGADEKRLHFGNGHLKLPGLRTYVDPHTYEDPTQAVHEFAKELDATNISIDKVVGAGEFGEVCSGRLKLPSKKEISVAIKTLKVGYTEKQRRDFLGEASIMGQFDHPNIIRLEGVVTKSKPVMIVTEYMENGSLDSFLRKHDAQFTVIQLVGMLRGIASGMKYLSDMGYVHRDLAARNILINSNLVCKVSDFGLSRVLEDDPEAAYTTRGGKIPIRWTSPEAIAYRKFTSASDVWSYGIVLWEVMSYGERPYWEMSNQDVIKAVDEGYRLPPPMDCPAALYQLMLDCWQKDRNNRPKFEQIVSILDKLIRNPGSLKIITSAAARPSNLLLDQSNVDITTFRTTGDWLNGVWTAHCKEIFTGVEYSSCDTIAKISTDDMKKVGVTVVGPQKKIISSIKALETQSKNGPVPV
UniProt Q9UL54, sequence (whole entry, looked up): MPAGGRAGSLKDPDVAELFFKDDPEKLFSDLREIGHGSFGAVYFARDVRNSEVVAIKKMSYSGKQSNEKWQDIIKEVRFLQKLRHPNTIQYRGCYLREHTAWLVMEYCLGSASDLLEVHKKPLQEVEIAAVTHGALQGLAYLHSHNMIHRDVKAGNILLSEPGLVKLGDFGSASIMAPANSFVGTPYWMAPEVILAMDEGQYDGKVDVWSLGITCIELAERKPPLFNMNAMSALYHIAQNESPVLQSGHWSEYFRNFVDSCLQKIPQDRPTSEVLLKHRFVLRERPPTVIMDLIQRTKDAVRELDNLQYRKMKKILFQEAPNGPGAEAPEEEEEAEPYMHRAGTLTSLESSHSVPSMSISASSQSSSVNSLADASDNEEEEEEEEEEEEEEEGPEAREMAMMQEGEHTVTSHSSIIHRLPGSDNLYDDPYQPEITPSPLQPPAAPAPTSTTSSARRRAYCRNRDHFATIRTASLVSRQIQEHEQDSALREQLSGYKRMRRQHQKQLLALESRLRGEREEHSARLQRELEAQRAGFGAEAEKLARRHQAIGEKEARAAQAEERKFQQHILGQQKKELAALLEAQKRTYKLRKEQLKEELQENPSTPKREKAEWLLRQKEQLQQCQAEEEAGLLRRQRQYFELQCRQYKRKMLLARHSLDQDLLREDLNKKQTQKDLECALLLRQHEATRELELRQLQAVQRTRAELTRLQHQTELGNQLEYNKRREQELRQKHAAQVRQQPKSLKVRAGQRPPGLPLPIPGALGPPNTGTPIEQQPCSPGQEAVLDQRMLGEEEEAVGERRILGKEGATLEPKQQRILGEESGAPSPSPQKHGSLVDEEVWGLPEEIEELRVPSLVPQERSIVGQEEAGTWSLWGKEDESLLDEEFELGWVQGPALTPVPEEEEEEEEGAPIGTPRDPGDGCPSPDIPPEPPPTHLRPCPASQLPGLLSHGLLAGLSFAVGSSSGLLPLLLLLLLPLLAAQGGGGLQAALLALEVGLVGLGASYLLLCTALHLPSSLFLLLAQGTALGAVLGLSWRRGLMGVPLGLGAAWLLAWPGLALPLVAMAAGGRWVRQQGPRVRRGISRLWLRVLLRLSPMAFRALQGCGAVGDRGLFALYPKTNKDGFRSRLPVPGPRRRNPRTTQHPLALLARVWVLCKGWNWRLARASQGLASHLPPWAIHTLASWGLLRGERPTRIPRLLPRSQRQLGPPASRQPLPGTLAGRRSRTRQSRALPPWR
UniProt Q6P3R8, sequence (whole entry, looked up): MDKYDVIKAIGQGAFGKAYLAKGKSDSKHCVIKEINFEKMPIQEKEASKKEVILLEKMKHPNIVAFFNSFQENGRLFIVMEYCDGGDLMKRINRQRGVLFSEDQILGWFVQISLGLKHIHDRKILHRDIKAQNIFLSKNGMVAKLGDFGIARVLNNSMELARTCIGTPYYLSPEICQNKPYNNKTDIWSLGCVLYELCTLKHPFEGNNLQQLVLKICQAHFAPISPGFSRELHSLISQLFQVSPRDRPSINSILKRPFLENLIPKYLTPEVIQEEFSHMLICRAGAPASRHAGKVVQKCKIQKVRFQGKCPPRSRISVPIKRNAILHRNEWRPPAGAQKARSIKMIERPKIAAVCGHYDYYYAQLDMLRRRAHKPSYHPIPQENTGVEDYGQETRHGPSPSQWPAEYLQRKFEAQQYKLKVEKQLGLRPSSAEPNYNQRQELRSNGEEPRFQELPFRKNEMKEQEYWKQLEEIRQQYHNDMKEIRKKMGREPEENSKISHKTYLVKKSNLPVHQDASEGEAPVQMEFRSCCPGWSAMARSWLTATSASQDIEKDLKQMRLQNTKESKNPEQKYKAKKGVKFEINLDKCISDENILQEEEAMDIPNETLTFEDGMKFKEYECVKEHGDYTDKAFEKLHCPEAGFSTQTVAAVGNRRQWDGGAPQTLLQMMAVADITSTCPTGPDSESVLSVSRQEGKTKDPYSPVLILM
UniProt Q13546, sequence (whole entry, looked up): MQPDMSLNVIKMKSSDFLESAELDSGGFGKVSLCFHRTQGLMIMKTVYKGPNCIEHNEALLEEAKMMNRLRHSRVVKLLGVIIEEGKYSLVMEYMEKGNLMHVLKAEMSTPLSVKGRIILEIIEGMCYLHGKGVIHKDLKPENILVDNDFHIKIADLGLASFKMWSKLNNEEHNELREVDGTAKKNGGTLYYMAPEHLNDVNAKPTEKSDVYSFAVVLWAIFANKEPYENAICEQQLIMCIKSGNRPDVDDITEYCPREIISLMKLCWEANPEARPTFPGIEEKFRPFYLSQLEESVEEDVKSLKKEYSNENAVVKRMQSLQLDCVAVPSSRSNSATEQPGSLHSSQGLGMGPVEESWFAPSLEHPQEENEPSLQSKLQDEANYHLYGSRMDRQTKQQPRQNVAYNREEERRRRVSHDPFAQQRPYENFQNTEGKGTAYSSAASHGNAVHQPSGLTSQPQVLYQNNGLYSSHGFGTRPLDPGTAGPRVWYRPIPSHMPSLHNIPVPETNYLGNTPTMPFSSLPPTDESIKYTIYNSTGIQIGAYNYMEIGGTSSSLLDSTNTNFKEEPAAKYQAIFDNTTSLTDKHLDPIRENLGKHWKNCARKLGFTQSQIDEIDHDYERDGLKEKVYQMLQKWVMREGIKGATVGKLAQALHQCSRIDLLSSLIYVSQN
UniProt O75747, sequence (whole entry, looked up): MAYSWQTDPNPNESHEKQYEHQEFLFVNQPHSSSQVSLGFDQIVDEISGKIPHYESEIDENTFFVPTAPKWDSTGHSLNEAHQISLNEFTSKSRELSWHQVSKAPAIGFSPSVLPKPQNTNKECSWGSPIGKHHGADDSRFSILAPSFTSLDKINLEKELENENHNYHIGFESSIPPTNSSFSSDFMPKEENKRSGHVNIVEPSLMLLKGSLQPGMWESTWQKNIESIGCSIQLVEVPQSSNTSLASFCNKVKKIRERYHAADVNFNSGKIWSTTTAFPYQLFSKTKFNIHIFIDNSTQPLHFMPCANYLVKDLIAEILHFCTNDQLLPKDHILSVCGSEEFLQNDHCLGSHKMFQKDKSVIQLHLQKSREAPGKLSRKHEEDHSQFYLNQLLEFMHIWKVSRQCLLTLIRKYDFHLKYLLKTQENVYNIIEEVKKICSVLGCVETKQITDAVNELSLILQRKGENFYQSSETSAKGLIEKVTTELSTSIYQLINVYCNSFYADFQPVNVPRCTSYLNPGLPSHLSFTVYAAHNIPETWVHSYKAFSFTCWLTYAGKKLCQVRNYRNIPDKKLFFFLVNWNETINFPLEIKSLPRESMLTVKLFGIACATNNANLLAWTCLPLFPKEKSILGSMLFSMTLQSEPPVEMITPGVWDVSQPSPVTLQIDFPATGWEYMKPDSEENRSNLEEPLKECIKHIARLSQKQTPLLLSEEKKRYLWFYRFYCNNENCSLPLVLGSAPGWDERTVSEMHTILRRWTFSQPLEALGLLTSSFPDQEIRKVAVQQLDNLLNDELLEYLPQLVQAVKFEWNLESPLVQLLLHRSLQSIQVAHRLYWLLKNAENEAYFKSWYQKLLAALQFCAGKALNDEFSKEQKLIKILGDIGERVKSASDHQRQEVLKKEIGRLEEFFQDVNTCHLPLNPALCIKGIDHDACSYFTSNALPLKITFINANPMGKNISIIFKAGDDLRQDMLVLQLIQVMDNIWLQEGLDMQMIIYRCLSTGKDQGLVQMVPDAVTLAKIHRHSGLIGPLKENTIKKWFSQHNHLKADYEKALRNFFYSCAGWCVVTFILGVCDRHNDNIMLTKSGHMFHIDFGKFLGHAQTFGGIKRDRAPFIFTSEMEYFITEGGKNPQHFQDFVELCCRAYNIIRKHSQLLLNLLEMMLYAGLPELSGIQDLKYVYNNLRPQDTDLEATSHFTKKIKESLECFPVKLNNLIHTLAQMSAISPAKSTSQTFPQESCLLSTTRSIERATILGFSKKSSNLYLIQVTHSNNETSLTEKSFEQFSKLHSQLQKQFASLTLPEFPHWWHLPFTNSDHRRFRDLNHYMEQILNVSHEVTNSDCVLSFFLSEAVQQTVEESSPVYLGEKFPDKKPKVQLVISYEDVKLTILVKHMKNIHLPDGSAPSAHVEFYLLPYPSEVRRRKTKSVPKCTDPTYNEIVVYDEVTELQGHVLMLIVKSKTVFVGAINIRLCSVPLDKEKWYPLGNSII

Sample 1 — technique: phase 2a trial; host: idiopathic pulmonary fibrosis patients
SMILES: CC(C)n1cnc(-c2ccc(F)cc2)c1-c1ncc(C(=O)Nc2ccc(N3CCN(C)CC3)cc2)[nH]1
The “patients with increased interferon-gamma” was 0% (30 mg once daily, grade 1).
The “patients with increased interferon-gamma” was 0% (all dose arms pooled, grade 3).
It gave 0% for “patients with increased interferon-gamma” (30 mg once daily, grade 3).

Sample 2 — technique: competition with immobilised ligand; tested at: 1 µM
Compound: O=C(N[C@H]1CCCCC/C=C\C2C[C@@]2(C(=O)O)NC(=O)[C@@H]2C[C@@H](Oc3ccncc3)CN2C1=O)OC1CCCC1 (stereo partly drawn)
For MARK3 (Homo sapiens, UniProt P27448); binding: remaining binding read 100%.
For TAOK2 (Homo sapiens, UniProt Q9UL54); binding: remaining binding read 100%.
The remaining binding was 86% (EPHA3 (Homo sapiens, UniProt P29320); cell-free assay).
SRC (Homo sapiens, UniProt P12931); binding — remaining binding: 100%.
MAP4K3 (Homo sapiens, UniProt Q8IVH8); binding — remaining binding: 100%.
NEK5 (Homo sapiens, UniProt Q6P3R8); binding — remaining binding: 91%.
For WNK3 (Homo sapiens, UniProt Q9BYP7); binding: remaining binding read 100%.
MAPK4 (Homo sapiens, UniProt P31152); binding — remaining binding: 100%.
It gave 88% for remaining binding (RIPK1 (Homo sapiens, UniProt Q13546); binding).
For CSK (Homo sapiens, UniProt P41240); cell-free assay: remaining binding read 96%.
For EIF2AK1 (Homo sapiens, UniProt Q9BQI3); binding: remaining binding read 100%.
It gave 71% for remaining binding (PIK3C2G (Homo sapiens, UniProt O75747); binding).
It gave 79% for remaining binding (MKNK1 (Homo sapiens, UniProt Q9BUB5); binding).
It gave 90% for remaining binding (MAP3K20 (Homo sapiens, UniProt Q9NYL2); binding).

Sample 3 — host: human; medium: microsomes or S9; tested at: 2 µM; time: 0.5 h
`O=C(CN1C(C(=O)c2ccccc2)=C(O)c2ccccc2S1(=O)=O)Nc1ccc(Br)cc1F` gave a remaining compound of 15.7%.
For `CCc1ccc(-n2c3nc(=O)[nH]c(=O)c-3cc3c(Cl)cccc32)cc1`, the remaining compound was 84.7%.
`Cc1ccccc1-c1nc2ccccc2cc1CN(C(=O)CCNC(=O)OC(C)(C)C)c1ccnc(S(C)(=O)=O)n1` gave a remaining compound of 51%.

Sample 4 — organism: Plasmodium berghei; action: inhibitor; cell line: Huh-7; strain: liver stage; tested at: 10 µM; time: 24 h; relative to: untreated control
With `NCCc1c[nH]cn1` the infection rate was 95.2%.
`CO[C@@]1(NC(=O)C(C(=O)O)c2ccc(O)cc2)C(=O)N2C(C(=O)O)=C(CSc3nnnn3C)CO[C@@H]21` (stereo partly drawn) gave an infection rate of 122%.
For `C[C@H](N)[C@H](O)c1cccc(O)c1`, the infection rate was 86.9%.

Sample 5 — cell line: HaCaT; tested at: 100 µM; time: 18 h
With `O=C(O)c1cccnc1` the viability was 111%.
`CCN(CC)CCNC(C(=O)OCCC(C)C)c1ccccc1` (stereo not drawn) gave a viability of 111%.
`CNC(=O)c1ccccc1Sc1ccc2c(/C=C/c3ccccn3)n[nH]c2c1` gave a viability of 24.5%.

Sample 6 — cell line: mouse MPNST tumor cells; technique: high-content nuclear imaging; item: cell number; tested at: 10 µM; time: 12 h; setting: mean of 2 replicates; relative to: plate mean; reading: higher = more cells
With `CS(=O)(=O)NCC1CCC(Nc2nc3c(s2)CCSc2ccccc2-3)CC1` (stereo not drawn) the nuclei count was 2.88 z-score.
With `COc1cccc(OC)c1-c1cc(C(=O)NC2(C(=O)O)C3CC4CC(C3)CC2C4)nn1-c1ccc(C(=O)N(C)CCCN(C)C)cc1C(C)C` (stereo not drawn) the nuclei count was 1.4 z-score.
`Cc1c(NC(=O)c2cccnc2)c(=O)n(-c2ccccc2)n1C` gave a nuclei count of 1.07 z-score.
With `CCOc1nc2cccc(C(=O)O)c2n1Cc1ccc(-c2ccccc2-c2noc(=O)[nH]2)cc1` the nuclei count was 0.897 z-score.

Some of these lines once more (sample 2):
For WNK3 (Homo sapiens, UniProt Q9BYP7); binding: remaining binding read 100%.
MAPK4 (Homo sapiens, UniProt P31152); binding — remaining binding: 100%.
It gave 88% for remaining binding (RIPK1 (Homo sapiens, UniProt Q13546); binding).
For CSK (Homo sapiens, UniProt P41240); cell-free assay: remaining binding read 96%.
